Published values of several laboratories.
Each line is one published result; not all experiments were run side by side. “And” joins repeats or separate records; there may be more than shown. ± gives the spread as reported.

SMILES | test | test system | setting | brain concentration
Cc1c2ccnc(C(=O)NCCN(C)C)c2cc2c3cc(O)ccc3n(C)c12 | – | C57BL/6J mouse, brain | intraperitoneal, 10 mg/kg, 120 min | 240 nM
O=S(=O)(c1ccc(-c2ccc3nccc(Nc4ccncn4)c3c2)cc1)N1CCOCC1 | – | female BALB/c mouse, brain | intraperitoneal, 10 mg/kg, 0.08 h | 90.9 ng/g and 87.4 ng/g
Cc1cc([C@H]2C[C@H]3[C@@H](C)SC(N)=N[C@@]3(c3ccc(F)cc3F)CO2)on1 | – | male 129/SVE mouse, brain | subcutaneous, 50 mg/kg, 5 h | 1480 nM
Cc1ccc2c(c1)C(=O)[C@]1(O)CCN(c3ccc4nc(C)ccc4c3)C1=N2 | – | C57BL/6 mouse, brain | subcutaneous, 2 mg/kg, 30 min | 400 ± 40 nM
CCCCCN1C[C@H](O)[C@@H](O)[C@H](O)[C@@H]1CO | LC-MS/MS | Hexb-/- mouse, brain | oral, food admix, 30 mg/kg/day, about 75 days | 160 nM
COc1cc2c(Nc3ccc(Cl)c(Cl)c3F)ncnc2cc1OC[C@@H]1C[C@@H]2CN(C)C[C@@H]2C1 | – | FVB wild-type mouse | oral, 70 mg/kg, 2 h | 720 ng/g
CN1C(=O)c2ccccc2[S@+]([O-])c2ccc(C(=O)NCCc3cccs3)cc21 | – | C57BL/6 mouse, male, brain | intraperitoneal, 30 mg/kg, single dose, 24 h, quantification limit 1 ng/mL | not detected
Cn1ncnc1[C@H]1c2n[nH]c(=O)c3cc(F)cc(c23)N[C@@H]1c1ccc(F)cc1 | – | FVB mouse Mdr1a/b-/- Bcrp-/-, brain | oral, 0.15 mg/kg, 2 h, single dose | 17.3 ± 3.8 ng/g
Cn1cc([C@H]2C[C@H]3CSC(N)=N[C@@]3(c3ccc(F)cc3F)CO2)cn1 | – | male 129/SVE mouse, brain | subcutaneous, 3 mg/kg, 6 h | 100 nM
CN(C)CC#Cc1ccc2[nH]c3c(c2c1)-c1nc(N)ncc1CCC3 | – | male CD-1 mouse, brain | intraperitoneal, 30 mg/kg, 1 h | 416 ng/g

Some of these lines once more:
SMILES | test | test system | setting | brain concentration
Cn1ncnc1[C@H]1c2n[nH]c(=O)c3cc(F)cc(c23)N[C@@H]1c1ccc(F)cc1 | – | FVB mouse Mdr1a/b-/- Bcrp-/-, brain | oral, 0.15 mg/kg, 2 h, single dose | 17.3 ± 3.8 ng/g
